# Assay results gathered from unrelated publications.
# Lines come from different studies, so protocols differ. ± marks the error that the study gave.
SMILES,test system,setting,scale,quantity,result
CC(=O)O[C@H]1C(=O)[C@@]2(C)[C@H]([C@H](OC(=O)c3ccccc3)[C@]3(O)C[C@H](OC(=O)[C@H](OC(=O)Cc4ccccc4SSCCC(=O)NCCOCCOCCNC(=O)CCC(=O)NCC(=O)NCC(=O)N[C@@H](CCCCN)C(=O)N[C@H](C(=O)N[C@@H](CCCCN)C(=O)N[C@H](C(=O)N[C@@H](CCCCN)C(=O)N[C@H](C(=O)N[C@@H](CCCCN)C(=O)N[C@H](C(=O)N4CCC[C@@H]4C(=O)N4CCC[C@H]4C(=O)N[C@H](C(=O)N[C@@H](CCCCN)C(=O)N[C@H](C(=O)N[C@@H](CCCCN)C(=O)N[C@H](C(=O)N[C@@H](CCCCN)C(=O)N[C@H](C(=O)N[C@@H](CCCCN)C(N)=O)C(C)C)C(C)C)C(C)C)[C@@H](C)O)C(C)C)C(C)C)C(C)C)C(C)C)[C@@H](NC(=O)c4ccccc4)c4ccccc4)C(C)=C1C3(C)C)[C@]1(OC(C)=O)CO[C@@H]1C[C@@H]2O,HEPES buffer,"24 h, pH 7.4, 37 °C",relative to: compound over free paclitaxel,solubility increase,~1000 fold
N=C(N)NCCC[C@@H]1NC(=O)[C@H](CCCCNC(=O)CNC(=O)CNC(=O)CNC(=O)CC[C@H](NC(=O)c2ccc(NN=Cc3ccccc3S(=O)(=O)O)nc2)C(=O)NCC(=O)NCC(=O)NCC(=O)NCCCC[C@@H]2NC(=O)[C@@H](Cc3ccccc3)NC(=O)[C@H](CC(=O)O)NC(=O)CNC(=O)[C@H](CCCNC(=N)N)NC2=O)NC(=O)[C@@H](Cc2ccccc2)NC(=O)[C@H](CC(=O)O)NC(=O)CNC1=O [technetium-99m labelled],"athymic nu/nu mouse, female, MDA-MB-435 xenograft","intravenous, 30 min",relative to: tumour over muscle,tumour to tissue ratio,2.84 ± 0.93
CCCC[C@H](NC(=O)CCCCCCCNC(=O)c1ccc(NN)nc1)C(=O)N[C@H]1CC(=O)NCCCC[C@@H](C(N)=O)NC(=O)[C@H](Cc2c[nH]c3ccccc23)NC(=O)[C@H](CCCNC(=N)N)NC(=O)[C@@H](Cc2ccccc2)NC(=O)[C@H](Cc2c[nH]cn2)NC1=O [technetium-99m labelled],"C57 mouse, B16/F1 melanoma, muscle","intravenous, 0.5 h",,uptake,0.43 ± 0.14 %ID/g
COc1cc(OC)cc(C2=C3c4ccccc4C(c4ccc(NC(=S)S[C@@H]5O[C@H](CO)[C@@H](O)[C@H](O)[C@H]5O)cc4)=[N+]3[B-](F)(F)n3c2c2ccccc2c3-c2ccc(NC(=S)NCCOCCOCCOCCC(=O)N[C@@H](CC(C)C)C(=O)N[C@@H](C)C(=O)N[C@@H](CCCNC(=N)N)C(=O)N[C@@H](CC(C)C)C(=O)N[C@@H](CC(C)C)C(=O)N[C@H](C(N)=O)[C@@H](C)O)cc2)c1,DMSO,,relative to: methylene blue,fluorescence quantum yield,0.47
N=C(N)NCCC[C@@H]1NC(=O)[C@H](CCCCNC(=O)CNC(=O)CNC(=O)CNC(=O)CC[C@H](NC(=O)CCOCCOCCOCCOCCNC(=O)CC[C@H](NC(=O)CN2CCN(CC(=O)O)CCN(CC(=O)O)CCN(CC(=O)O)CC2)C(=O)NCCOCCOCCOCCOCCC(=O)N[C@@H](CCC(=O)NCC(=O)NCC(=O)NCC(=O)NCCCC[C@@H]2NC(=O)[C@@H](Cc3ccccc3)NC(=O)[C@H](CC(=O)O)NC(=O)CNC(=O)[C@H](CCCNC(=N)N)NC2=O)C(=O)NCC(=O)NCC(=O)NCC(=O)NCCCC[C@@H]2NC(=O)[C@@H](Cc3ccccc3)NC(=O)[C@H](CC(=O)O)NC(=O)CNC(=O)[C@H](CCCNC(=N)N)NC2=O)C(=O)NCC(=O)NCC(=O)NCC(=O)NCCCC[C@@H]2NC(=O)[C@@H](Cc3ccccc3)NC(=O)[C@H](CC(=O)O)NC(=O)CNC(=O)[C@H](CCCNC(=N)N)NC2=O)NC(=O)[C@@H](Cc2ccccc2)NC(=O)[C@H](CC(=O)O)NC(=O)CNC1=O [indium-111 labelled],"athymic nude mice, female, U-87 MG glioma xenograft, tumour and lungs","intravenous, 24 h",relative to: tumour over lungs,tumour to tissue ratio,5.59 ± 0.63
CSCC[C@H](NC(=O)[C@H](CC(C)C)NC(=O)[C@H](Cc1c[nH]cn1)NC(=O)CNC(=O)[C@@H](NC(=O)[C@H](C)NC(=O)[C@H](Cc1c[nH]c2ccccc12)NC(=O)[C@H](CCC(N)=O)NC(=O)CCCCCNC(=O)CNC(=O)CNC(=O)CNC(=O)CSC(C)=O)C(C)C)C(N)=O [technetium-99m labelled],"Swiss mouse, liver","intravenous, 18.5 MBq, 240 min",,tissue uptake,1.54 ± 0.06 %ID/g
N=C(N)NCCC[C@@H]1NC(=O)[C@H](CCCCNC(=O)CC[C@H](NC(=O)CCOCCOCCOCCOCCNC(=O)CC[C@H](NC(=O)CN2CCN(CC(=O)O)CCN(CC(=O)O)CCN(CC(=O)O)CC2)C(=O)NCCOCCOCCOCCOCCC(=O)N[C@@H](CCC(=O)NCCCC[C@@H]2NC(=O)[C@@H](Cc3ccccc3)NC(=O)[C@H](CC(=O)O)NC(=O)CNC(=O)[C@H](CCCNC(=N)N)NC2=O)C(=O)NCCCC[C@@H]2NC(=O)[C@@H](Cc3ccccc3)NC(=O)[C@H](CC(=O)O)NC(=O)CNC(=O)[C@H](CCCNC(=N)N)NC2=O)C(=O)NCCCC[C@@H]2NC(=O)[C@@H](Cc3ccccc3)NC(=O)[C@H](CC(=O)O)NC(=O)CNC(=O)[C@H](CCCNC(=N)N)NC2=O)NC(=O)[C@@H](Cc2ccccc2)NC(=O)[C@H](CC(=O)O)NC(=O)CNC1=O [indium-111 labelled],"athymic nude mice, female, U-87 MG glioma xenograft, tumour and liver","intravenous, 72 h",relative to: tumour over liver,tumour to tissue ratio,4.89 ± 1.62
N=C(N)NCCC[C@@H]1NC(=O)[C@H](CCCCNC(=O)CCOCCOCCOCCOCCNC(=O)CC[C@H](NC(=O)CCOCCOCCOCCOCCNC(=O)[C@H](CCCCNC(=O)c2ccc(NN)nc2)NC(=O)c2ccc(NN)nc2)C(=O)NCCOCCOCCOCCOCCC(=O)NCCCC[C@@H]2NC(=O)[C@@H](Cc3ccccc3)NC(=O)[C@H](CC(=O)O)NC(=O)CNC(=O)[C@H](CCCNC(=N)N)NC2=O)NC(=O)[C@@H](Cc2ccccc2)NC(=O)[C@H](CC(=O)O)NC(=O)CNC1=O [technetium-99m labelled],female athymic nude mice,"intravenous, 1 h, U-87 MG glioma xenograft",relative to: tumour over muscle,tissue ratio,10.8 ± 1.92
N=C(N)NCCC[C@@H]1NC(=O)[C@H](CCCCNC(=O)CCOCCOCCOCCOCCNC(=O)CN2CCN(CC(=O)O)CCN(CC(=O)O)CCN(CC(=O)O)CC2)NC(=O)[C@@H](Cc2ccccc2)NC(=O)[C@H](CC(=O)O)NC(=O)CNC1=O [indium-111 labelled],"athymic nude mice, female, U-87 MG glioma xenograft, tumour and blood","intravenous, 72 h",relative to: tumour over blood,tumour to tissue ratio,40.1 ± 16.4
CCCC[C@H](NC(=O)CNC(=O)CNC(=O)CNC(=O)c1ccc(NN)nc1)C(=O)N[C@H]1CC(=O)NCCCC[C@@H](C(N)=O)NC(=O)[C@H](Cc2c[nH]c3ccccc23)NC(=O)[C@H](CCCNC(=N)N)NC(=O)[C@@H](Cc2ccccc2)NC(=O)[C@H](Cc2c[nH]cn2)NC1=O [technetium-99m labelled],"C57 mouse, B16/F1 melanoma, lung","intravenous, 2 h",,uptake,0.18 ± 0.12 %ID/g
N=C(N)NCCC[C@@H]1NC(=O)[C@H](CCCCNC(=O)CC[C@H](NC(=O)CCOCCOCCOCCOCCNC(=O)CN2CCN(CC(=O)O)CCN(CC(=O)O)CCN(CC(=O)O)CC2)C(=O)NCCCC[C@@H]2NC(=O)[C@@H](Cc3ccccc3)NC(=O)[C@H](CC(=O)O)NC(=O)CNC(=O)[C@H](CCCNC(=N)N)NC2=O)NC(=O)[C@@H](Cc2ccccc2)NC(=O)[C@H](CC(=O)O)NC(=O)CNC1=O [indium-111 labelled],female athymic nude mouse,"intravenous, 3 µCi, 4 h, U-87 MG glioma xenograft",relative to: tumour over muscle,tumour to muscle ratio,6.88 ± 0.87
CCCC[C@H](NC(=O)CNC(=O)CNC(=O)c1ccc(NN)nc1)C(=O)N[C@H]1CC(=O)NCCCC[C@@H](C(N)=O)NC(=O)[C@H](Cc2c[nH]c3ccccc23)NC(=O)[C@H](CCCNC(=N)N)NC(=O)[C@@H](Cc2ccccc2)NC(=O)[C@H](Cc2c[nH]cn2)NC1=O [technetium-99m labelled],"C57 mouse, B16/F1 melanoma","2 h, together with: L-lysine",relative to: tumour over muscle,uptake ratio,235

# For quick reference, copied from above:
SMILES,test system,setting,scale,quantity,result
CCCC[C@H](NC(=O)CNC(=O)CNC(=O)CNC(=O)c1ccc(NN)nc1)C(=O)N[C@H]1CC(=O)NCCCC[C@@H](C(N)=O)NC(=O)[C@H](Cc2c[nH]c3ccccc23)NC(=O)[C@H](CCCNC(=N)N)NC(=O)[C@@H](Cc2ccccc2)NC(=O)[C@H](Cc2c[nH]cn2)NC1=O [technetium-99m labelled],"C57 mouse, B16/F1 melanoma, lung","intravenous, 2 h",,uptake,0.18 ± 0.12 %ID/g
N=C(N)NCCC[C@@H]1NC(=O)[C@H](CCCCNC(=O)CCOCCOCCOCCOCCNC(=O)CN2CCN(CC(=O)O)CCN(CC(=O)O)CCN(CC(=O)O)CC2)NC(=O)[C@@H](Cc2ccccc2)NC(=O)[C@H](CC(=O)O)NC(=O)CNC1=O [indium-111 labelled],"athymic nude mice, female, U-87 MG glioma xenograft, tumour and blood","intravenous, 72 h",relative to: tumour over blood,tumour to tissue ratio,40.1 ± 16.4
